Published values gathered from unrelated publications.
Numbered parts are unrelated; each lists some results of a single study.

Block 1 — technique: competition protein-binding microarray; molecule type: double-stranded DNA, one strand shown; medium: in vitro; concentration: 2 µM; together with: Pho4 competitor, 0.05 µM; reading: higher = stronger binding; quantity: fluorescence intensity
Target: Centromere-binding protein 1, full length, His-tagged (CBF1, Saccharomyces cerevisiae, UniProt P17106, residues 1-351)
UniProt P17106, sequence (whole entry, looked up): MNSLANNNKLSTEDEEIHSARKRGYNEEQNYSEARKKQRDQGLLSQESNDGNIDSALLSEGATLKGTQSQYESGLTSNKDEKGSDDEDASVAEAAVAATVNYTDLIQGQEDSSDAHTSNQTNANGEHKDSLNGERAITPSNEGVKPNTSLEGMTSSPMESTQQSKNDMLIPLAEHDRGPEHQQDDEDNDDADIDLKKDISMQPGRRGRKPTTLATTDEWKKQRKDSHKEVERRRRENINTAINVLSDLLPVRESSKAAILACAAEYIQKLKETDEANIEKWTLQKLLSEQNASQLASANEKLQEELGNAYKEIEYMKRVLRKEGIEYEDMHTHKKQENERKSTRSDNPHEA
Notes: whole 60-bp probe, lowest competitor level
CTCGTAATCTGGTCCCACGTCTTGCACTATATGCAGGTCTTGATTCGCTTGACGCTGCTG: 60.1 a.u.
TGCGCAACAACTTGAACCGTGGGTGTATGTCTAGAAGTCTTGATTCGCTTGACGCTGCTG: 64.8 a.u.
CGTCCTAGTGATTGTATTGTGGGTGCCATGAGGAAGGTCTTGATTCGCTTGACGCTGCTG: 99.5 a.u.

Block 2 — technique: protein binding microarray; molecule type: double-stranded DNA, one strand shown; medium: in vitro; concentration: not given; relative to: not given; reading: higher = stronger binding; quantity: E-score
Target: Histone acetyltransferase KAT6A, both winged helices, GST fusion (KAT6A, Homo sapiens, UniProt Q92794, residues 1-181)
Notes: 8-mer, flanks averaged, mean of 2 arrays, mostly near background
Construct (chain): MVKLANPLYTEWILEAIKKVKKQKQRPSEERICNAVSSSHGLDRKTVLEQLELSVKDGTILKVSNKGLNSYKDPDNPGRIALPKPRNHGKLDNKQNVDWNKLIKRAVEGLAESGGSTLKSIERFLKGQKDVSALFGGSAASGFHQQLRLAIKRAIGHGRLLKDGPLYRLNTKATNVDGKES
AAGTGGGT: -0.162
AGATGAGA: -0.176
CAAGAGAC: -0.0731
TAAAAAAA: -0.0757

Other studies, line by line
F2 mature alpha-thrombin: Prothrombin, mature alpha-thrombin (F2, Homo sapiens, UniProt P00734)
GGTTGGTGTGGTTGG (2'F-ANA at 1 2 12 13 14 15) — mean fluorescence intensity (F2 mature alpha-thrombin; aptamer microarray, sandwich; DNA with 2'F-ANA, in vitro; 200 nM, whole 15-mer aptamer, many near background, together with: Cy3 exosite-II aptamer, 400 nM; higher = stronger binding): 64.2 a.u.
PhoQ, residues 284 288 289 292 302 303 SSTLLI — fold induction (PhoP, residues 12 14 15 18 19 LWHVM (Escherichia coli, UniProt P23836); Sort-seq, refers to: YFP reporter; E. coli; PhoQ-PhoP variant library, together with: 10 µM Mg2+; relative to: high Mg2+ state, higher = stronger signaling): 4.3
GGTTGGTGTGGTTGG (2'F-ANA at 4 5 6 8 9 10 11 13 15) — mean fluorescence intensity (F2 mature alpha-thrombin; aptamer microarray, sandwich; DNA with 2'F-ANA, in vitro; 200 nM, whole 15-mer aptamer, many near background, together with: Cy3 exosite-II aptamer, 400 nM; higher = stronger binding): 46.6 a.u.

For quick reference, copied from above (other studies, line by line):
PhoQ, residues 284 288 289 292 302 303 SSTLLI — fold induction (PhoP, residues 12 14 15 18 19 LWHVM (Escherichia coli, UniProt P23836); Sort-seq, refers to: YFP reporter; E. coli; PhoQ-PhoP variant library, together with: 10 µM Mg2+; relative to: high Mg2+ state, higher = stronger signaling): 4.3
